Results pooled from the literature.
Each numbered part is a random draw from the data of one study; scales do not carry over between parts. Values joined by “and” are separate records of one study, mostly repeats; a detail may differ.

Series 1 — technique: RNA Bind-n-Seq; form: RNA; matrix: in vitro; concentration: not given; reference: input RNA pool; direction: higher = stronger binding
Target: RING finger protein unkempt homolog, zinc fingers 1-6, GST-SBP tag (UNK, Homo sapiens, UniProt Q9C0B0, residues 30-357)
Sequence of UniProt Q9C0B0 (30-357, looked up): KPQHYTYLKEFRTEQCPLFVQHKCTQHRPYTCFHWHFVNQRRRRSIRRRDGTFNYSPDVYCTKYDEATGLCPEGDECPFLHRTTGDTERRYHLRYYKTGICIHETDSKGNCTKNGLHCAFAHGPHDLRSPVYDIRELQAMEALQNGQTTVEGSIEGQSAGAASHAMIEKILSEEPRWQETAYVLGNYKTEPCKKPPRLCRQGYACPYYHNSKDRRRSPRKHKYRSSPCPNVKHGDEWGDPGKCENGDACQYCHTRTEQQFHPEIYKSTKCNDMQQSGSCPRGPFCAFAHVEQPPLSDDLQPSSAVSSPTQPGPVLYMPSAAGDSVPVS
Notes: RNA with constant flanks, human and mouse sites, ends assumed
| Oligonucleotide | bound/input enrichment [ratio] |
| --- | --- |
| GGGAGUUCUACAGUCCGACGAUCAUGUCAUUAAGCUCUGAUGGUUGUAUAUAUGAAACCUUGAUACCAAUACGUCCAGCUGACCCAGAAAAAAAUCAGAGCUUAGUUAAAUCACUGCUGCUCAAGGCUGUUGUAUCUGGUAACCAACAGAGGAUUGAGCAUCA | 0.66 |
| GGGAGUUCUACAGUCCGACGAUCCCAGUAGAGGGCAGCGAAAUUGGCUCAGAGACGCUGUCCAUUUCUUCUUCCCGCGACUCCACCCUGCGGAGAAAGGGCAAUAUCAUUCUAAUCCCUGAAAGAAGCAACAGCCCCGAAAACCAACAGAGGAUUGAGCAUCA | 0.296 |
| GGGAGUUCUACAGUCCGACGAUCGACUCUGAAGAUGCACUUUCUGUUCAAUUUGACAUGAAAUUGGCUGAUGUGGGAGGAGAUCUUAAGCAUGUCAUGUCUGAUAGCUCUUUGGAUUUACCAACAGUUAGUGGCCAGCAUCCUCAACAGAGGAUUGAGCAUCA | 0.207 |
| GGGAGUUCUACAGUCCGACGAUCGCCUGCGCUCCUAACAAAGAUGUGGCAGACUGCCUGGCCUUGAUCCUUUCCACCAUGAAGCCUUUCCCACCCAAGGACGCCGUCAGUCCUUUCAGCUUCAGCCUGCUCAAGAACUGCGGCCAACAGAGGAUUGAGCAUCA | 0.212 |

Series 2 — technique: protein-binding microarray; form: double-stranded DNA, one strand shown; matrix: in vitro; concentration: 2540 nM top; notes: 60-bp whole probe; added: salmon DNA 0.4 mg/ml; reference: random background probes; direction: higher = stronger binding; shared flanks, not repeated: GCCTAGCAC … GTCTTGATTCGCTTGACGCTGCTG
Target: Interferon regulatory factor 3, full length, phosphomimetic (IRF3, Homo sapiens, UniProt Q14653, residues 1-427, S386D/S396D/S398D/S402D/T404D/S405D)
Sequence of UniProt Q14653 (whole entry, unmodified, looked up): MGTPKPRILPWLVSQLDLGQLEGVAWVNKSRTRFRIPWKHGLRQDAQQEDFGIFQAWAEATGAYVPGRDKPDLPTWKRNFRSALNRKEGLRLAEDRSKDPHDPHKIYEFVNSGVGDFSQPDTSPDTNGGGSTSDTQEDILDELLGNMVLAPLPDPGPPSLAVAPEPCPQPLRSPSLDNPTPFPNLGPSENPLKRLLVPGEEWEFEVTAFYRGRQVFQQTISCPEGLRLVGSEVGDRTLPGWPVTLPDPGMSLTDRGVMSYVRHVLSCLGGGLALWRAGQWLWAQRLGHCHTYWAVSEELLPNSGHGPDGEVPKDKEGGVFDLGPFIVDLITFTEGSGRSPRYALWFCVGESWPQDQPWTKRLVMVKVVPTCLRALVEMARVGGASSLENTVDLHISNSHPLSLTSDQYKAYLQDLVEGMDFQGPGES
| Oligonucleotide | fitted relative affinity [z-score] |
| --- | --- |
| AACAATATATATATTATATAGTGCTAG | 0.271 |
| TTAGGTCTCGGTTTCGCTTAGTGCTAG | 3.82 |
| TTAGTACTGGGGACTGGATTAGTGCTA | -0.574 |
| GACCTTTTTAAGATCTGTGCGTGCTAG | 2.35 |
| AGCTCCCTTTCTCTCTGTGAGTGCTAG | 3.74 |

Series 3 — technique: RNA Bind-n-Seq; form: RNA; matrix: in vitro; concentration: 365 nM; reference: no-protein control; direction: higher = stronger binding
Target: RNA binding protein fox-1 homolog 2, RRM domain, GST-SBP tag (RBFOX2, Homo sapiens, UniProt O43251-10, residues 100-194)
Notes: natural RNA segment, single round, ends assumed
Shared flanks, not repeated: GGGAGUUCUACAGUCCGACGAUC … UGGAAUUCUCGGGUGCCAA
| Oligonucleotide | RBNS enrichment (R) |
| --- | --- |
| GGAGGCGAGAGGAAGGGGAGAACUUGGAGAAUAGUUUUUGCUUUGGGGGUAGAGGCUUCUUAGAUUCUCCCAGCAUCCGCCUUUCCCUUUAGCCAGUCUGCUGUCCUGAA | 1.41 |
| GUAGAUGAUGGCUGAGAGCCCUUCCUGUUCCCAGAUGCCUUGGUCCAAAGACCCCACCCCUCUGCUGGUCCUGCCAACGUGUUGGUGCUAUAAGCUGCUUCAGAUAUAAA | 0.524 |
| UAAAUAAGAAACAACUCUUUGAGAAACAACAAUUUCUACUUUGAAGUCAUACCAAUGAAAAAAUGUAUAUGCACUUAUAAUUUUCCUAAUAAAGUUCUGUACUCAAAUGU | 0.948 |
| AAACAGAACAGAACAGCCUUUGCACUAAAUUAGUGACUCGCGCAGUGAACACAGGCUGCGAUGCUCUGGACAUGUGUGCAUGAGCACGCCGUGGACUCUCGUGCAGGACU | 0.567 |
| GCGUCUCUGCUGUGUUGCGCAGUGCAGUGGGGUGCAAGGGCUUUGUUUCUGCCUGCCUGAAAGAGAGGGCUCUGGGGAUGGAGAUGAGAAACAACACGCUCUCCUUCAGA | 0.891 |

Single results of other studies
| Molecule | target | test | test system | conditions | scale | endpoint | value |
| --- | --- | --- | --- | --- | --- | --- | --- |
| PhoQ, residues 284 288 289 292 302 303 DDMDFR | PhoP, residues 12 14 15 18 19 LWHCS (Escherichia coli, UniProt P23836) | Sort-seq, refers to: YFP reporter | E. coli | PhoQ-PhoP variant library, added: 10 µM Mg2+ | reference: high Mg2+ state, higher = stronger signaling | fold induction | 0.997 and 0.879 |
